Measured values collected from several papers.
Parts stem from different laboratories: compare values within a part only. Positions count from the first letter of the parent shown.

Series 1
Target: Ras GTPase-activating protein-binding protein 1, C-terminal RGG region (G3BP1, Homo sapiens, UniProt Q13283)
Sequence of UniProt Q13283 (whole entry, looked up): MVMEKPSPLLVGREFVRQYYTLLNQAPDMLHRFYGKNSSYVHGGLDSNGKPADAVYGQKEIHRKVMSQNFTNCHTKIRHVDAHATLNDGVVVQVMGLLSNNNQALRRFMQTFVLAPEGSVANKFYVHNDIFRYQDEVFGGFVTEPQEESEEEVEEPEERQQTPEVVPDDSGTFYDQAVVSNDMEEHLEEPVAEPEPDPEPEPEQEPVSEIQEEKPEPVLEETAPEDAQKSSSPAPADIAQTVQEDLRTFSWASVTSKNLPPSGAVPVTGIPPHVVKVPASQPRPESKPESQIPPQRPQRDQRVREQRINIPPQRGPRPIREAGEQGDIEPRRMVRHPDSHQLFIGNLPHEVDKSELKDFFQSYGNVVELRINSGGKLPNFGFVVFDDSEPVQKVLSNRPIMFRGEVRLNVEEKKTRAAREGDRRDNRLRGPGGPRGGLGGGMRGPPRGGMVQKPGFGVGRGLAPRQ
Method: RNA Bind-n-Seq
Molecule type: RNA
Medium: in vitro
Tested at: 1 µM
Notes: whole 134-nt RNA, ends assumed
With: 150 mM KCl
Baseline: input library
Reading: higher = stronger binding
The log2 enrichment of `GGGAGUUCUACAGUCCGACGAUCUGGCCCUGGUGGCAUGCGGGGAGGAAGAGGUGGCCUCAUGGAUUGUGGUGGUCCCGGUGGAAUGUUCAGAGGUGGCCGUGGUGGAGACAGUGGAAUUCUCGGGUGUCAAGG` is reported as 2.19.
The log2 enrichment of `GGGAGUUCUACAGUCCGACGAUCAAGUCCUGUGCUACACAUCGUAUGUACCGAAUCGGGUUUUGGGGUUUUGGUUUUGGGAAAGUAUUAUGUUACGCCGUUCGGAUCUGCACUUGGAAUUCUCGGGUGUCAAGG` is reported as -1.03.
The log2 enrichment of `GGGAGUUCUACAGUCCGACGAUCCACAGACAACACGCACCCACACAGACACAGAGGGAAGGGGUUGGGAUGGGGACAGGGUGCACAGCAUGGCGGGGUAGGACCCCAGCCCCUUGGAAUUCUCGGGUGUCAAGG` is reported as -0.267.
For `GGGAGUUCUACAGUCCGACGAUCUCAAGUCCUGUGCUACACAUCGUAUGUACCGAAUCGGGCCGGGGCCGGCCGGGGAAAGUAUUAUGUUACGCCGUUCGGAUCUGCACUUCCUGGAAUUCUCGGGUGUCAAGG`, the log2 enrichment was -1.08.
`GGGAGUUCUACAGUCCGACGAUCAGUCCUGUGCUACACAUCGUAUGUACCGAAUCGGCCCCGGGGCCCCGGGGCCCCGGGAAAGUAUUAUGUUACGCCGUUCGGAUCUGCACUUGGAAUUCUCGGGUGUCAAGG` has a log2 enrichment of -1.69.

Series 2
Target: RNA binding protein fox-1 homolog 2, RRM domain, GST-SBP tag (RBFOX2, Homo sapiens, UniProt O43251-10, residues 100-194)
Method: RNA Bind-n-Seq
Molecule type: RNA
Medium: in vitro
Tested at: 365 nM
Notes: natural RNA segment, single round, ends assumed
Baseline: no-protein control
Reading: higher = stronger binding
Construct (chain): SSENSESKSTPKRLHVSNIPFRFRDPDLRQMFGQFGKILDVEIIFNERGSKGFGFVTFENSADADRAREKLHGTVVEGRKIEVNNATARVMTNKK
`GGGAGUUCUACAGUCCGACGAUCUCAAGAAAAAUAAAAGAUUAUAAUCUCAGUUUAAAAUUACUAAUGUGUGACAACCAUACCUCAGUUUGAAAUAGAUUUAACAAGAUUAUUCCCUGACAUUUUCUUCCAUGUGGAAUUCUCGGGUGCCAA` — result for “RBNS enrichment (R)”: 0.363.
`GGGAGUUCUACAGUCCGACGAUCAAGAAGAGAUUAAAAACUUCGGCUUUGGACAUGUCCACAUUAUGGACUGUCAUCUUAUUUUUAAAAGUCAUUCUUUACGUUUAAAAUUUUAAAAUAAAAACCUUCUGAGGUGGAAUUCUCGGGUGCCAA` — result for “RBNS enrichment (R)”: 0.653.
Under “RBNS enrichment (R)”, `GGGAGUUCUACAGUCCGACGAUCUGCUCUUUAUUCCAGACAAGGCAGGAAAGUCUGAGUUGGGAGUGACAGUGGCUGGAGAGAAGCAGAUCUGUGCAACGUGCAGGGCAAGCCAGUGGCGUGGCCUCUGCCUCUGGAAUUCUCGGGUGCCAA` is recorded as 0.632.
For `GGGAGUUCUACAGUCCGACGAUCUCAUCCUGGCUGGGAGAAGUGGGACCGAGCCACCCAGCCCCACUAUCCCCAAGCAGCCCUACAGCCGGGAUGGGAGGCACGUGGCCUCUCUUUUAUCCGUCUAUUUAUUUUGGAAUUCUCGGGUGCCAA`, “RBNS enrichment (R)” read 0.382.
For `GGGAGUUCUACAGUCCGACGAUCAUUUUUCCCAGAGGCUAUCUUGAUUCUUUGGAAUGUUUAAAGUGUGCCUUGCCAGAGAGCUUACGAUCUAUAUCUGCUGCUUCAGAGCCUUCCCUGAGGAUGGCUCUGUUUGGAAUUCUCGGGUGCCAA`, “RBNS enrichment (R)” read 0.255.
Under “RBNS enrichment (R)”, `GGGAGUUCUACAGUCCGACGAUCUGUGACCACAUCAGGGCCUUGAAUCUUUGUACCUGACAGACCUGGGACCUGGAGUUCGGGCAGAUGUGACAUCAAUAAAACUGCGUCUCACAUUUUAACCAUGUUUUCUGUGGAAUUCUCGGGUGCCAA` is recorded as 0.303.
For `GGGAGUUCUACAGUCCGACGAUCCUUCCUUUCUUGGGGGAUGGGCCUUGCCCUCUUCUCUUUUCCCUUCCUGUACCUUUGACUAACGCUCAGCUUCCGGGCCUGCAUGCAGUAGACAGAAGAGGAAGAAAGAAUGGAAUUCUCGGGUGCCAA`, “RBNS enrichment (R)” read 4.89.
For `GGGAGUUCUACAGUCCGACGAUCCUCAGAUUCCUUAAGCAUGCAGAGUCACUCGAAUGAAAAAACAUACUCGACCUCUCCCUAAAAAGAUGUUGCAACCCAGUUUCUCUGAAUUCCACCACAAAAAGAGACCCUGGAAUUCUCGGGUGCCAA`, “RBNS enrichment (R)” read 19.7.
`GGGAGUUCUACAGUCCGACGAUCUUUCAUUGUCACACCAAAUAACCAGUUGGACAAUAUUGCAUUUUCAAAAUGGAGAGUUAUUUAAAGUGGAUGUGUAGCCUUCUGGAAUCUGCACGUGACUGGCAUUUUAAUGGAAUUCUCGGGUGCCAA`: “RBNS enrichment (R)” 2.91.

Series 3
Target: ABI1, truncated, D143A, DHFR fusion (Arabidopsis thaliana)
Method: DHFR PCA, deep sequencing
Medium: yeast
Notes: methotrexate growth selection, single substitutions
With: (+)-ABA 0.0091 µM
Baseline: wild-type fitted maximum
Reading: higher = stronger binding
Parent: PYL1, truncated, DHFR fusion (Arabidopsis thaliana); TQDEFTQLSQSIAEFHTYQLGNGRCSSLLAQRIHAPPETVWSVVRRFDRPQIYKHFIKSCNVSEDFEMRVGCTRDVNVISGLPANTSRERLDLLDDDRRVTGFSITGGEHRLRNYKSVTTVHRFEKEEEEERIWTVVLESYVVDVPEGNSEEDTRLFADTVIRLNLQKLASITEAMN
Under “relative binding score”, `G107A` is recorded as 19%.
`R49Q` — result for “relative binding score”: 42.1%.
For `S87W`, “relative binding score” read 33.4%.
`H122G` — result for “relative binding score”: -0.69%.
`N61T`: “relative binding score” 60.1%.
For `E14T`, “relative binding score” read 2.49%.
`E147F` — result for “relative binding score”: 14.1%.
`R99E`: “relative binding score” -5.98%.
Under “relative binding score”, `D153Q` is recorded as 1.91%.
For `S26T`, “relative binding score” read 30.4%.
Under “relative binding score”, `S59F` is recorded as 5.01%.
For `V137E`, “relative binding score” read -1.81%.
`L29E` — result for “relative binding score”: -2.9%.

Series 4
Target: Histone acetyltransferase KAT6A, both winged helices, GST fusion (KAT6A, Homo sapiens, UniProt Q92794, residues 1-181)
Method: protein binding microarray
Molecule type: double-stranded DNA, one strand shown
Medium: in vitro
Tested at: not given
Notes: 8-mer, flanks averaged, mean of 2 arrays, mostly near background
Baseline: not given
Reading: higher = stronger binding
Construct (chain): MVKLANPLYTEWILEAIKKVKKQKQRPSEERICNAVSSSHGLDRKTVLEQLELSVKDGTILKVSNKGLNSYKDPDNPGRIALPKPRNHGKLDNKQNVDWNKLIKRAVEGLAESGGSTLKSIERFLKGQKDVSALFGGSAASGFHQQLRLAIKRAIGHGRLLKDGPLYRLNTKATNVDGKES
The E-score of `CACACAAA` is reported as -0.175.
For `TGACTACA`, the E-score was -0.111.
For `ACATCTGC`, the E-score was -0.0891.
`ACACTGGT` has an E-score of -0.197.
With `CCCATTAC` the E-score was -0.171.
The E-score of `GAACTTTA` is reported as 0.00225.
`AAGGGATT` gave an E-score of -0.0729.
`ACATCGTG` has an E-score of -0.0762.
With `AAAATTAC` the E-score was -0.0794.
The E-score of `AACGAGAG` is reported as -0.114.
`TAGACAAA` has an E-score of -0.182.
The E-score of `CTACAGCA` is reported as -0.0793.
With `AAGCAGGG` the E-score was -0.162.
The E-score of `ATATCGAA` is reported as 0.0264.
The E-score of `GATGGCAC` is reported as -0.07.
`AGTGCCTG` has an E-score of -0.214.
`CCATAGGA` has an E-score of -0.156.

Series 5
Target: Interferon regulatory factor 5, full length, phosphomimetic (IRF5, Homo sapiens, UniProt Q13568-2, residues 1-514, K96S/S451D/S453D/S456D/S462D)
Method: protein-binding microarray
Molecule type: double-stranded DNA, one strand shown
Medium: in vitro
Tested at: 250 nM
Notes: 60-bp whole probe
With: salmon DNA 0.4 mg/ml
Baseline: random background probes
Reading: higher = stronger binding
All sequences stand within: GCCTAGCAC … GTCTTGATTCGCTTGACGCTGCTG
The log fluorescence of `GTGATTTCAGTTTTCTTTTCGTGCTAG` is reported as 3.27 z-score.
The log fluorescence of `TTAGGAATCCTTCTCCTTTAGTGCTAG` is reported as 0.000608 z-score.
`TTAGGACTGGAAACTGGGTTAGTGCTA` has a log fluorescence of -0.175 z-score.
`CTAGTTTTCATTTTCTGAATGTGCTAG` gave a log fluorescence of 3.27 z-score.
For `TTAGGTTCTGGTTTCGGTTAGTGCTAG`, the log fluorescence was 9.02 z-score.
With `GGCGATATCGGGTATCGAGACGTGCTA` the log fluorescence was 2.69 z-score.
The log fluorescence of `TTAGATTCCGGTTTCGGTTAGTGCTAG` is reported as 9.28 z-score.
With `GACGGTATCGACTTTCGGGGCGTGCTA` the log fluorescence was 5.7 z-score.
The log fluorescence of `TTTTGCTTTCTTTTTGCACTGTGCTAG` is reported as 6.39 z-score.
The log fluorescence of `CTGGTTTTTACTTTCTGAATGTGCTAG` is reported as 3.14 z-score.
`TTAGATTTCAGTATCGATTGGTGCTAG` has a log fluorescence of 8.16 z-score.
With `GACGGTTTCCTGCTGCTGACGTGCTAG` the log fluorescence was 0.338 z-score.
The log fluorescence of `AAAAAAATCATTTTCTCTGTGTGCTAG` is reported as 1.38 z-score.
`TTAGTTATCGGTTTCGGTTAGTGCTAG` gave a log fluorescence of 11 z-score.

Other studies, line by line
Organism: Saccharomyces cerevisiae
Observed: binding
Method: competitive growth deep sequencing
Molecule type: peptide
Tested at: concentration not given
Reading: direction not given
Under “growth enrichment score”, `SNARRSLNFGGST` is recorded as 0.279 (cyclin D3-Cln2 fusion strain; RxL motif peptides).
`REPARRLFLFGEE` — result for “growth enrichment score”: -0.0819 (cyclin D3-Cln2 fusion strain; Cln2 score subtracted).
For `GSPLKKLFTSTGA`, “growth enrichment score” read 0.535 (cyclin E1-Cln2 fusion strain; combined peptide libraries).

A few entries again (series 5):
With `GACGGTATCGACTTTCGGGGCGTGCTA` the log fluorescence was 5.7 z-score.
`TTAGTTATCGGTTTCGGTTAGTGCTAG` gave a log fluorescence of 11 z-score.
`TTAGATTTCAGTATCGATTGGTGCTAG` has a log fluorescence of 8.16 z-score.
With `GACGGTTTCCTGCTGCTGACGTGCTAG` the log fluorescence was 0.338 z-score.
The log fluorescence of `TTAGATTCCGGTTTCGGTTAGTGCTAG` is reported as 9.28 z-score.
The log fluorescence of `GTGATTTCAGTTTTCTTTTCGTGCTAG` is reported as 3.27 z-score.
With `GGCGATATCGGGTATCGAGACGTGCTA` the log fluorescence was 2.69 z-score.
